Assay results from different studies.
Protocols differ between the studies behind these lines. ± marks the error that the study gave.
Chain of UniProt P10635 (whole entry, looked up): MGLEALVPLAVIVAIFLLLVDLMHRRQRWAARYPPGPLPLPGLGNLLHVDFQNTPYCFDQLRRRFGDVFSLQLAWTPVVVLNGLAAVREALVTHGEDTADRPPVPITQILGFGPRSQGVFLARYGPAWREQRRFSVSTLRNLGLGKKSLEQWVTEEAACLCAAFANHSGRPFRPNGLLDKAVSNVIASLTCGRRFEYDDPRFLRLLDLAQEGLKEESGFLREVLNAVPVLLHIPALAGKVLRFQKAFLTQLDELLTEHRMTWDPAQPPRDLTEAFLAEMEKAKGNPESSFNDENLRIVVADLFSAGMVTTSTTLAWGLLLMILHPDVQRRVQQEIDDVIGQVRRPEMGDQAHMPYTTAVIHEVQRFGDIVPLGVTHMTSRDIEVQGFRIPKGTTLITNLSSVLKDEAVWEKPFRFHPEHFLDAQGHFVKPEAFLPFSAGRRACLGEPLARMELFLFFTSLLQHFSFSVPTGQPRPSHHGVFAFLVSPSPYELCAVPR

Compound | tested on | assay | test system | setting | how to read | quantity | value
COc1cccc(OC)c1-c1cc(C(=O)NC2(C(=O)O)C3CC4CC(C3)CC2C4)nn1-c1ccc(C(=O)N(C)CCCN(C)CCCN(C)C(=O)[C@H](CCCCNC(=O)[C@H](CC(C)C)NC(=O)C2OC2C(=O)O)NC(=O)CN2CCN(CC(=O)[O-])CCN(CC(=O)[O-])CCN(CC(=O)[O-])CC2)cc1C(C)C.[177Lu+3] (mixture of isomers) | – | – | mouse HT-29 xenograft, large intestine | 4 h post injection, biodistribution | – | tissue uptake | 1.7 %ID/g
[123I]c1ccc2nc(-c3ccc(-n4ccnn4)nc3)cn2c1 | – | – | male Wistar rat, small intestine | intravenous, 4 MBq, 3 h | – | tissue uptake | 1.5 ± 0.424 %ID/g
COc1ccc(Nc2nc(Nc3ccc(OCCOCC[18F])cc3)ncc2Br)cc1 | – | – | ICR mice, S180 tumour-bearing, heart | intravenous, 370 kBq, 60 min | – | tissue uptake | 2.88 ± 0.23 %ID/g
Cc1cc(C)n(CCN(CCN)CCCCCCNC(=O)[C@@H](N)Cc2c[nH]cn2)n1.[99Tc+].[C-]#[O+].[C-]#[O+].[C-]#[O+] | – | – | BALB/c nude mice A549 xenograft, tumor | intravenous, 24 h | – | tissue uptake | 0.76 ± 0.2 %ID/g
COc1cccc(OC)c1-c1cc(C(=O)NC2(C(=O)O)C3CC4CC(C3)CC2C4)nn1-c1ccc(C(=O)N(C)CCOCCN(C)C(=O)[C@H](CCCCNC(=O)[C@H](CC(C)C)NC(=O)C2OC2C(=O)O)NC(=O)CN2CCN(CC(=O)[O-])CCN(CC(=O)[O-])CCN(CC(=O)[O-])CC2)cc1C(C)C.[177Lu+3] (mixture of isomers) | – | – | mouse HT-29 xenograft, large intestine | 4 h post injection, biodistribution | – | tissue uptake | 2.2 %ID/g
CCCC[C@H](NC(=O)COCCOCCNC(=O)CN1CCN(CC(=O)O)CCN(CC(=O)O)CC1)C(=O)N[C@H]1CC(=O)NCCCC[C@@H](C(N)=O)NC(=O)[C@H](Cc2c[nH]c3ccccc23)NC(=O)[C@H](CCCNC(=N)N)NC(=O)[C@@H](Cc2ccccc2)NC(=O)[C@H](Cc2c[nH]cn2)NC1=O [fluorine-18 labelled] | – | – | C57 mice B16-F10 melanoma, spleen | intravenous, 0.37 MBq, 1 h | – | tissue uptake | 0.25 ± 0.15 %ID/g
COc1cccc(OC)c1-c1cc(C(=O)NC2(C(=O)O)C3CC4CC(C3)CC2C4)nn1-c1ccc(C(=O)N(C)CCOCCOCCN(C)C(=O)[C@H](CCCCNC(=O)[C@H](CC(C)C)NC(=O)C2OC2C(=O)O)NC(=O)CN2CCN(CC(=O)[O-])CCN(CC(=O)[O-])CCN(CC(=O)[O-])CC2)cc1C(C)C.[177Lu+3] (mixture of isomers) | – | – | mouse, HT-29 xenograft, liver | 72 h post injection | – | tissue uptake | 0.75 %ID/g
Cc1cc(C)n(CCN(CCN)CCCCCCNC(=O)[C@@H](N)Cc2c[nH]c3ccccc23)n1.[99Tc+].[C-]#[O+].[C-]#[O+].[C-]#[O+] | – | – | BALB/c nude mice, A549 xenograft, spleen | intravenous, 15 min | – | tissue uptake | 2.21 ± 0.01 %IA/g
COC1CN([C@H]2CC[C@H]([C@@]3(C)Oc4c(Cl)cc(C(=O)NCc5c(SC)cc(C)[nH]c5=O)c(C)c4O3)CC2)C1 | – | RNA-seq, item: PTPRB mouse homolog | mouse, HT-1376 xenograft, whole blood | dose not given | relative to: vehicle | log2 fold change | 2.82
CC(C)OCCOCc1ccc(OCC(O)CN(N=O)C(C)C)cc1 (stereo not shown) | Salmonella typhimurium | Ames test | TA1535 | 158 µg/plate, 30 % rat S9 | relative to: solvent control | revertant fold increase | 0.9 fold
C=CC(=O)Nc1cccc(Cn2ncc3cnc(Nc4cnn(CCOC)c4)nc32)c1 | STK39 human | binding, KINOMEscan | – | 100 nM | lower = stronger binding | percent of control | 100%
CC(C)Cc1ccc(C(C)C(=O)N[C@@H](CCCCNC(=O)CCOCCOCCOCCOCCOCCOCCNC(=O)CN2CCN(CC(=O)[O-])CCN(CC(=O)[O-])CCN(CC(=O)[O-])CC2)C(=O)Nc2cccc3c(C(=O)NCC(=O)N4CC(F)(F)C[C@H]4C#N)ccnc23)cc1.[177Lu+3] (stereo partly shown) | – | – | mouse, U-87 MG tumour xenograft, salivary gland | 24 h | – | tissue uptake | 2.15 ± 0.86 %ID/g
CNC(=O)C1CCCN(C(=O)C2CC3CCC2N3C(=O)[C@@H]2C[C@@H](O)CN2C(=O)NCc2cccc(Cl)c2F)C1 (mixture of isomers) | Cytochrome P450 2D6 (CYP2D6, Homo sapiens, UniProt P10635) | enzyme activity, inhibitor, time-dependent inhibition | – | 0.0686 µM, preincubated without NADPH | relative to: negative control | remaining activity | 101%
C=C(NC(=O)c1csc(-c2nc3c(cc2O)-c2nc(cs2)C(=O)NC(C(C)O)C(=O)NC(=C(C)OC)c2nc(cs2)C(=O)NC2c4nc(cs4)C(=O)NC(COC(=O)c4c5c6c(cccc6n4O)COC(=O)C(OC4CC(C)(O)C(N(C)C)C(C)O4)C2OC5)c2nc-3cs2)n1)C(N)=O (stereo not shown) | – | – | Sprague-Dawley rat, male, plasma | intravenous infusion, 6 mg/kg, multiple doses, day 1 | – | half-life | 5.51 h
Nc1ncc(-c2cc(-c3cnn(CC(F)(F)F)c3)ncc2F)nc1C(=O)NC1CNCC(F)C1 (stereo not shown) | RIOK1 | KINOMEscan | – | 1 µM | relative to: DMSO control | remaining binding | 33%
CNS(=O)(=O)Nc1nccc(Cc2c(C)c3ccc(Oc4ncccc4F)cc3oc2=O)c1F | RMG-V | cell viability, CellTiter-Glo | – | 7 days | – | IC50 | 59.1 nM
COc1cccc(OC)c1-c1cc(C(=O)NC2(C(=O)O)C3CC4CC(C3)CC2C4)nn1-c1ccc(C(=O)N(C)CCCN(C)C(=O)[C@H](CCCCNC(=O)[C@H](CC(C)C)NC(=O)C2OC2C(=O)O)NC(=O)CN2CCN(CC(=O)[O-])CCN(CC(=O)[O-])CCN(CC(=O)[O-])CC2)cc1C(C)C.[177Lu+3] (mixture of isomers) | – | – | mouse, HT-29 xenograft, heart | 72 h post injection | – | tissue uptake | 0.06 %ID/g
O=C(O)CCCOc1ccc([18F])cc1-c1cc(-c2ccccc2C(F)(F)F)n(-c2ccccc2)n1 | – | – | mouse, blood | intravenous, dose not given, 180 min | – | tissue uptake | 0.25 ± 0.06 %ID/g
N#C[C@@H]1CC(F)(F)CN1C(=O)CNC(=O)c1ccnc2c(NC(=O)CCOCCOCCOCCOCCOCCOCCNC(=O)[C@H](CCCCNC(=O)CN3CCN(CC(=O)[O-])CCN(CC(=O)[O-])CCN(CC(=O)[O-])CC3)NC(=O)CCCc3ccc(I)cc3)cccc12.[177Lu+3] | – | – | mouse, U-87 MG tumour xenograft, kidneys | 4 h | – | tissue uptake | 1.79 ± 0.52 %ID/g
CC(C)C[C@H](NC(=O)[C@@H](CCCCNC(=O)[C@@H](Cc1ccccc1)NC(=O)CCCCCCCNC(=O)CN1CCN(CC(=O)O)CCN(CC(=O)O)CCN(CC(=O)O)CC1)NC(=O)[C@H](Cc1ccc(O)cc1)NC(=O)[C@H](CO)NC(=O)[C@H](Cc1c[nH]c2ccccc12)NC(=O)[C@H](Cc1c[nH]cn1)NC(=O)[C@@H]1CCC(=O)N1)C(=O)N[C@@H](CCCNC(=N)N)C(=O)N1CCC[C@H]1C(=O)NCC(N)=O [indium-111 labelled] | – | – | male athymic nude mice, DU-145 xenograft, intestines | intravenous, 1 h, together with: 10 µg unlabelled blocking peptide | – | tissue uptake | 1.1 ± 0.64 %ID
COc1cccc(OC)c1-c1cc(C(=O)NC2(C(=O)O)C3CC4CC(C3)CC2C4)nn1-c1ccc(C(=O)NCCNC(=O)[C@H](CCCCNC(=O)[C@H](CC(C)C)NC(=O)C2OC2C(=O)O)NC(=O)CN2CCN(CC(=O)[O-])CCN(CC(=O)[O-])CCN(CC(=O)[O-])CC2)cc1C(C)C.[177Lu+3] (mixture of isomers) | – | – | mouse, HT-29 xenograft, brain | 24 h post injection | – | tissue uptake | 0.07 %ID/g
CCCC[C@H](NC(=O)CNC(=O)CNC(=O)[C@H](CCCCNC(=O)[C@H](CC(=O)O)NC(=O)C(C)c1ccc(CC(C)C)cc1)NC(=O)CN1CCN(CC(=O)O)CCN(CC(=O)O)CCN(CC(=O)O)CC1)C(=O)N[C@H]1CC(=O)NCCCC[C@@H](C(N)=O)NC(=O)[C@H](Cc2c[nH]c3ccccc23)NC(=O)[C@H](CCCNC(=N)N)NC(=O)[C@@H](Cc2ccccc2)NC(=O)[C@H](Cc2c[nH]cn2)NC1=O (stereo partly shown) [lutetium-177 labelled] | – | – | C57 mice, tumour-bearing, bone | intravenous, 0.037 MBq, 0.5 h | – | tissue uptake | 1.55 ± 0.27 %ID/g
N#C[C@@H]1CC(F)(F)CN1C(=O)CNC(=O)c1ccnc2c(NC(=O)[C@H](CCCCNC(=O)CCOCCOCCOCCOCCOCCOCCNC(=O)CN3CCN(CC(=O)[O-])CCN(CC(=O)[O-])CCN(CC(=O)[O-])CC3)NC(=O)CCCc3ccc(I)cc3)cccc12.[177Lu+3] | – | – | mouse, U-87 MG tumour xenograft, salivary gland | 48 h | – | tissue uptake | 1.06 ± 0.5 %ID/g
Cc1ncsc1-c1ccc(C(C)NC(=O)C2CC(O)CN2C(=O)C(NC(=O)CCCCCCCCCCN2CCCC(Nc3ncc(Cl)c(Nc4ccccc4S(=O)(=O)C(C)C)n3)C2)C(C)(C)C)cc1 (stereo not shown) | 22Rv1 | RNA-seq, item: TMEM185B mRNA | – | concentration not given | relative to: DMSO | log2 fold change | -1.57
[11CH3]N1CCC(NC(=O)c2cc(-c3c(O)cc(O)cc3Oc3ccc([N+](=O)[O-])cc3)on2)CC1 | – | – | Wistar rat, female, healthy, spleen | intravenous, 60 min | – | tissue uptake | 0.3 %ID
